Measured values gathered from unrelated publications.
Numbered parts are unrelated; each lists some results of a single study. Numbers after ± are the reported error.
Sequence of UniProt P13393 (whole entry, looked up): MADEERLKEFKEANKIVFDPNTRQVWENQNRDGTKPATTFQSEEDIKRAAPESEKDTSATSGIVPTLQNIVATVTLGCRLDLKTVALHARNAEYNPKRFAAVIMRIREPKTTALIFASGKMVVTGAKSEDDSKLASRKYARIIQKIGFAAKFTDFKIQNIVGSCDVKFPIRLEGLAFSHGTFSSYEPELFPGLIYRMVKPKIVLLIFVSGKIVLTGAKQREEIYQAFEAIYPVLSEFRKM

Series 1
Target: U2AF2 148-342 (Homo sapiens, UniProt P26368)
Sequence of UniProt P26368 (whole entry, looked up): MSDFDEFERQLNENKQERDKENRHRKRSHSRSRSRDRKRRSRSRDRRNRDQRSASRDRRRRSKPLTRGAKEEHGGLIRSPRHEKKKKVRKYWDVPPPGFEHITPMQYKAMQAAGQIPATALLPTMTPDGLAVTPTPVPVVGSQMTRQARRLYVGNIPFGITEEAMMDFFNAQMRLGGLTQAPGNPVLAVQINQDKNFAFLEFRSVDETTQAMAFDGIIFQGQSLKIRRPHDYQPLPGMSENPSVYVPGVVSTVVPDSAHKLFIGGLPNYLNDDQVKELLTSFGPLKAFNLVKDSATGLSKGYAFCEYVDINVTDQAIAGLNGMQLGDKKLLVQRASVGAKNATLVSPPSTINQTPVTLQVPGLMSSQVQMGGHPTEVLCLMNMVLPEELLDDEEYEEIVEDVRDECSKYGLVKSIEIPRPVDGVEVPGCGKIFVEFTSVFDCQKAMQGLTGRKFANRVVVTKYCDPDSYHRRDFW
Technique: sequencing of bound RNA
Molecule type: RNA
Setting: motif only
All molecules: ssRNA
Oligonucleotide | Kd
UUCCUAGAU | 2620 nM
GUUUUUGCA | 7710 nM
CUUUGGCUU | 8520 nM
CAGUAUAUA | 2560 nM
UAUUCAUUU | 3180 nM
GUUGUAAUU | 10900 nM
GUGCUCUUU | 1210 nM
AGUUUUAUU | 1010 nM

Single results of other studies
CDK5 with p25: Cyclin-dependent kinase 5, with p25 (CDK5, Homo sapiens, UniProt Q00535)
Sequence of UniProt Q00535 (whole entry, looked up): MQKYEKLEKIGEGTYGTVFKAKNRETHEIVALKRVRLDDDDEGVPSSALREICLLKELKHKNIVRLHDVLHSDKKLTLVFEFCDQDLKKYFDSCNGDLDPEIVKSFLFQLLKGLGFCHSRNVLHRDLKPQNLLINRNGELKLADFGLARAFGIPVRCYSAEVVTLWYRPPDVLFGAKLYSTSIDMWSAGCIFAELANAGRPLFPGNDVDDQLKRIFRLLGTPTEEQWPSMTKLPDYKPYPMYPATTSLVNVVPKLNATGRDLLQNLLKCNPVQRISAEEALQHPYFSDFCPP
SUA7 full length assumed: SUA7 full length assumed (Saccharomyces cerevisiae, UniProt P29055)
Sequence of UniProt P29055 (whole entry, looked up): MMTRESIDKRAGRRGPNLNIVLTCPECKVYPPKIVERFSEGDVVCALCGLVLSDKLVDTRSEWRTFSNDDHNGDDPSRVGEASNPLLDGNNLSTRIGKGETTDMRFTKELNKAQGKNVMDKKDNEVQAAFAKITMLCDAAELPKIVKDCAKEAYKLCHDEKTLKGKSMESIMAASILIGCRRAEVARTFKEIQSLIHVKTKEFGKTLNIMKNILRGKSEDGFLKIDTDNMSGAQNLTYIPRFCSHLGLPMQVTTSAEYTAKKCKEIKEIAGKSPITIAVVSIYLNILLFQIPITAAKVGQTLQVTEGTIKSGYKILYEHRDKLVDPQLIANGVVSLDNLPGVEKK
B1: human CAP2; sequence looked up; chain ANMQGLVERLERAVSRLESLSAESHRPPGNCGEVNGVIAGVAPSVEAFDKLMDSMVAEFLKNSRILAGDVETHAEMVHSAFQAQRAFLLMASQYQQPHENDVAALLKPISEKIQEIQTFRERNRGSNMFNHLSAVSESIPALGWIAVSPKPGPYVKEMNDAATFYTNRVLKDYKHSDLRHVDWVKSYLNIWSELQAYIKEHHTTGLTWSKTGPVASTVSAFSVLSSGPGLPPPPPPLPPPGPPPLFENEGKKEESSPSRSALFAQLNQGEAITKGLRHVTDDQKTYKNPSLRAQGGQTQSPTKSHTPSPTSPKSYPSQKHAPVLELEGKKWRVEYQEDRNDLVISETELKQVAYIFKCEKSTIQIKGKVNSIIIDNCKKLGLVFDNVVGIVEVINSQDIQIQVMGRVPTISINKTEGCHIYLSEDALDCEIVSAKSSEMNILIPQDGDYREFPIPEQFKTAWDGSKLITEPAEIMA
Substance | target or system | test | test system | conditions | scale | quantity | result
Polymyxin B |  | untargeted LC-MS metabolomics, item: NADH | Sprague-Dawley rat, right cerebral cortex | intracerebroventricular, 0.75 mg/kg, 1 h | baseline: NaCl control | log2 fold change | -8.6
TCCTGAAGAGGCGCCCTAGCTTGGTCCTATCGTCGTCAAGTCAATCGGTCC (dsDNA; 5'-amino-C6 primer) | SPT15 full length assumed (Saccharomyces cerevisiae, UniProt P13393) | array | double-stranded DNA, one strand shown | TBP alone |  | Kd | 0.87 ± 0.05 nM
B1 (human CAP2) | CYB5R4 knockout human cells | PP4 interaction, 3xFLAG-PP4C IP-MS |  | concentration not given | baseline: CYB5R4 KO over parental | log2 fold change | 0.45
KEAFWDRCLSVINLASSKMLQINA | CDK5 with p25 | phosphotransferase activity, radiometric | peptide | concentration not given, 10% DMSO, with: histone substrate | baseline: p5-WT peptide | activity change | 60%
ATTCCAGTATGGCGTATAAATAAAGGCGAGGAGAATCAAGTCAATCGGTCC (dsDNA; 5'-amino-C6 primer) | SUA7 full length assumed | array | double-stranded DNA, one strand shown | TFIIB alone |  | Kd | 0.98 ± 0.29 nM
Teicoplanin |  |  | QC solution | 2 months, -40 °C, low QC level |  | recovery | 101%
GAATTCCTGTAAAGTAATGTGGAGCTCCGTTCGTCTCAAGTCAATCGGTCC (dsDNA; 5'-amino-C6 primer) | SUA7 full length assumed | array | double-stranded DNA, one strand shown | TFIIB alone |  | Kd | 4.03 ± 1.04 nM
KEAFWNRCLSVINLMSSKMLQINA | CDK5 with p25 | phosphotransferase activity, radiometric | peptide | concentration not given, 10% DMSO, with: histone substrate | baseline: p5-WT peptide | activity change | 23%

Excerpt of the above (series 1):
Oligonucleotide | Kd
CAGUAUAUA | 2560 nM
